Experimental data from different studies.

SMILES	organism	assay	test system	conditions	EC50
Cc1ccc(S(=O)(=O)N2C(=O)CSC2c2cccc(Br)c2)cc1 (stereo not shown)	influenza B virus	viral cytopathicity, visual CPE scoring	MDCK, B/Ned/537/05	–	> 100 µM
O=C1/C(=N\NC(=S)NN=Cc2ccccc2)c2ccccc2N1Cc1ccccc1	vesicular stomatitis virus	viral replication	HeLa	–	> 20 µM
CC1SC2(CCC(c3ccc(O)cc3)CC2)N(NC(=O)Cc2csc3nc(-c4ccc(Br)cc4)cn23)C1=O (stereo not shown)	vesicular stomatitis virus	viral cytopathic effect	HEL	–	> 100 µg/mL
NC(=O)c1ncn([C@@H]2O[C@H](CO)[C@@H](O)[C@H]2O)n1	vesicular stomatitis virus	viral replication	HeLa	–	4 µM
O=C(Cc1csc2nc(-c3ccc(Br)cc3)cn12)NN1C(=O)CSC12CCCCC2	vesicular stomatitis virus	viral cytopathic effect	HEL	–	> 100 µg/mL
O=C(N/N=C1\C(=O)Nc2ccccc21)N/N=C1\C(=O)Nc2ccccc21	vesicular stomatitis virus	viral replication	HeLa	–	> 100 µM
Cc1ccc(S(=O)(=O)N2C(=O)CSC2c2cccc([N+](=O)[O-])c2)cc1 (stereo not shown)	influenza B virus	viral cytopathicity, visual CPE scoring	MDCK, B/Ned/537/05	–	> 100 µM
CN/C(=N\[N+](=O)[O-])NCc1cnc(Cl)s1	Folsomia candida	reproduction, OECD 232	LUFA 2.2 soil	28 days	0.05 mg/kg dry soil
Cc1ccc(S(=O)(=O)N2C(=O)CSC2c2ccc(O)cc2)cc1 (stereo not shown)	influenza B virus	viral cytopathicity, visual CPE scoring	MDCK, B/Ned/537/05	–	> 100 µM
O=c1[nH]c(=O)n([C@H]2C[C@H](O)[C@@H](CO)O2)cc1/C=C/Br	vesicular stomatitis virus	viral cytopathic effect	HEL	–	> 250 µM
O=C(N/N=C1\C(=O)Nc2ccc(Cl)cc21)N/N=C1\C(=O)Nc2ccc(Cl)cc21	vesicular stomatitis virus	viral replication	HeLa	–	> 100 µM
O=C(Cc1csc2nc(-c3ccc(Br)cc3)cn12)NN1C(=O)CSC12CCCC2	vesicular stomatitis virus	viral cytopathic effect	HEL	–	> 100 µg/mL
Cc1ccc(S(=O)(=O)N2C(=O)CSC2c2ccccc2Cl)cc1 (stereo not shown)	influenza B virus	viral cytopathicity, visual CPE scoring	MDCK, B/Ned/537/05	–	> 100 µM
CC1SC2(CCCC2)N(NC(=O)Cc2csc3nc(-c4ccc(Br)cc4)cn23)C1=O (stereo not shown)	vesicular stomatitis virus	viral cytopathic effect	HEL	–	> 100 µg/mL
CN1COCN(Cc2cnc(Cl)s2)/C1=N\[N+](=O)[O-]	Folsomia candida	reproduction, OECD 232	LUFA 2.2 soil	28 days	0.2 mg/kg dry soil
Cc1ccc(S(=O)(=O)N2C(=O)CSC2c2ccc([N+](=O)[O-])cc2)cc1 (stereo not shown)	influenza B virus	viral cytopathicity, visual CPE scoring	MDCK, B/Ned/537/05	–	> 100 µM

Repeated from above:
SMILES	organism	assay	test system	conditions	EC50
O=C(N/N=C1\C(=O)Nc2ccccc21)N/N=C1\C(=O)Nc2ccccc21	vesicular stomatitis virus	viral replication	HeLa	–	> 100 µM
